Measurements of several laboratories.
Lines come from different studies, so protocols differ.
Read-out: metabolic stability
Sample: liver microsomes

| SMILES | species | tested at | pH | half-life |
| --- | --- | --- | --- | --- |
| CCC(CC)CNC(=N)NC(=N)NCCCCCCNC(=N)NC(=N)NCC(CC)CC | mouse | 2 µM | – | 64.6 min |
| CC(C)(F)CCN(Cc1ccc(F)cc1)c1nc(C#N)nc(N2CCOCC2)n1 | mouse | – | – | 3.5 min |
| CNC(=O)C1CCN(c2cc(C)ccc2NC(=O)c2ccc(-c3cc(O)ccc3C)c(C)c2)CC1 | mouse | 2 µM | – | 10 min |
| C[N+]1(CC(=O)OC2CCCCCCCCCCC2)CCCCC1 | mouse | – | – | 4.9 min |
| O=C(O)c1ccc(/C=C2\SC(=S)N(Cc3cccc(C(F)(F)F)c3)C2=O)cc1 | mouse | 1 µM | – | > 145 min |
| COc1cc(-c2nc3ccc(C(=O)NCCCN4CCN(C(=O)c5ccccc5)CC4)cc3n2C2CCC2)cc(OC)c1OC | mouse | – | – | 2.8 min |
| CC(C)n1ncc2c(C(=O)NCCN(C)C)cc(C3CC3)nc21 | mouse | – | – | 21.3 min |
| COc1cc(-c2nc3ccc(C(=O)NCCCN4CCN(C5CCCCC5)CC4)cc3n2C2CCC2)cc(OC)c1OC | mouse | – | – | 10 min |
| O=C(Nc1ccc(OCCN2CCCC2)cc1)c1cc2ccc(Cl)cc2s1 | female mouse | – | – | > 40 min |
| C#Cc1cccc(Nc2ncnc3cc(OC)c(OCCCN4CCOCC4)cc23)c1 | mouse | 1 µM | pH 7.4 | 7.01 min |
| CNC(=O)C1CCN(c2ccccc2NC(=O)c2ccc(-c3c(C)ccc4[nH]ncc34)c(C)c2)CC1 | mouse | 2 µM | – | < 10 min |
| N#Cc1nc(N2CCOCC2)nc(N(Cc2ccc(F)cc2)CC2CCCCC2)n1 | mouse | – | – | 15 min |
| O=C(Nc1ccc(-c2noc(C3CC3)n2)c(Cl)c1)c1cccs1 | mouse | – | – | 16.3 min |
| CNC(=O)c1cc(C)ccc1NC(=O)c1ccc(-c2c(C)ccc3[nH]ncc23)c(C)c1 | mouse | 2 µM | – | > 25 min |
| O=c1c(-c2cnn(-c3ccc(Cl)cc3)c2)c(C(F)(F)F)oc2c(O)c(O)ccc12 | mouse | – | – | > 300 min |
| Brc1ccc(Nc2nc(NN=Cc3c[nH]c4ccccc34)nc(N3CCOCC3)n2)cc1 | mouse | 0.1 µM | pH 7.4 | 11.9 min |
| CN(C)C(=O)c1ccnc(N2Cc3cn(Cc4ccc(F)cc4F)nc3C2)n1 | mouse | – | – | 141 min |
| CC(C)CCN(c1nc(C#N)nc(NC2COC2)n1)C(C)c1ccc(F)cc1 (stereo not shown) | mouse | – | – | 5 min |
| COc1cc(-c2nc3ccc(C(=O)NCCCN(C)C)cc3n2C2CCC2)cc(OC)c1OC | mouse | – | – | 505 min |

Some of these lines once more:
| SMILES | species | tested at | pH | half-life |
| --- | --- | --- | --- | --- |
| O=C(Nc1ccc(OCCN2CCCC2)cc1)c1cc2ccc(Cl)cc2s1 | female mouse | – | – | > 40 min |
| O=C(Nc1ccc(-c2noc(C3CC3)n2)c(Cl)c1)c1cccs1 | mouse | – | – | 16.3 min |
